{"data": "Results from different studies", "note": "Each numbered part is a random draw from the data of one study; scales do not carry over between parts. Substitutions count along the parent as printed."}
{"data": "Sample 1", "target": "ABI1, truncated, D143A, DHFR fusion (Arabidopsis thaliana)", "method": "DHFR PCA, deep sequencing", "medium": "yeast", "setting": "methotrexate growth selection, single substitutions", "added": "(+)-ABA 200 µM", "reference": "wild-type fitted maximum", "reading": "higher = stronger binding", "starting sequence": "PYL1, truncated, DHFR fusion (Arabidopsis thaliana); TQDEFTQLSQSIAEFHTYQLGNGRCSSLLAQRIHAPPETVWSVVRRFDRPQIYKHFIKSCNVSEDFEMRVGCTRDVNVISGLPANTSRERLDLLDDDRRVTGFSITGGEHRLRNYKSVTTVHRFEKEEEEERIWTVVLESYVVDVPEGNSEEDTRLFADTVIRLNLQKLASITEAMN"}
{"Substitution": "F66T", "relative binding score": "91.2%"}
{"Substitution": "G81S", "relative binding score": "70.5%"}
{"Substitution": "E38D", "relative binding score": "102%"}
{"Substitution": "K168L", "relative binding score": "63.2%"}
{"Substitution": "W134G", "relative binding score": "106%"}
{"Substitution": "F15I", "relative binding score": "67.2%"}
{"Substitution": "T135L", "relative binding score": "-3.34%"}
{"data": "Sample 2", "target": "Interferon regulatory factor 3, full length, phosphomimetic (IRF3, Homo sapiens, UniProt Q14653, residues 1-427, S386D/S396D/S398D/S402D/T404D/S405D)", "method": "protein-binding microarray", "molecule type": "double-stranded DNA, one strand shown", "medium": "in vitro", "tested at": "2540 nM top", "setting": "60-bp whole probe", "added": "salmon DNA 0.4 mg/ml", "reference": "random background probes", "reading": "higher = stronger binding", "constant ends, left off below": "GCCTAGCAC … GTCTTGATTCGCTTGACGCTGCTG", "Residues (chain)": "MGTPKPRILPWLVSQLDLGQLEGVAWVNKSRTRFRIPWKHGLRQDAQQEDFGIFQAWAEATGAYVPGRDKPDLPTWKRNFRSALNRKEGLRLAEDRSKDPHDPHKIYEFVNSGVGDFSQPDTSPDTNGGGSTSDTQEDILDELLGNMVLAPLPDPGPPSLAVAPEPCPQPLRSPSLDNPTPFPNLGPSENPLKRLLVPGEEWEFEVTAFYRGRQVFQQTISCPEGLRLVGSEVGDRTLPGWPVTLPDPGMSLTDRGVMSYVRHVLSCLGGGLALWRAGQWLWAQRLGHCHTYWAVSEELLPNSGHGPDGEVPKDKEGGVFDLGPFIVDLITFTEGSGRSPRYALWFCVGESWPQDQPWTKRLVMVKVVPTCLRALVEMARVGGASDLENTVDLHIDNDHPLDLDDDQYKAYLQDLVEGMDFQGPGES"}
{"Sequence": "TCATGTCTGGGATTTTGACTGTGCTAG", "fitted relative affinity": "-0.339 z-score"}
{"Sequence": "TCACTTACCTCACTCGTACTGTGCTAG", "fitted relative affinity": "0.783 z-score"}
{"Sequence": "GTAGGACTGCTTATCCTTTAGTGCTAG", "fitted relative affinity": "-0.25 z-score"}
{"Sequence": "TCAACACTGGTTTTTACACTGTGCTAG", "fitted relative affinity": "-0.276 z-score"}
{"Sequence": "TTAGATCTCCGTATCGATTAGTGCTAG", "fitted relative affinity": "1.36 z-score"}
{"Sequence": "GACGGTCTCCTTCTCCTCACGTGCTAG", "fitted relative affinity": "4.03 z-score"}
{"Sequence": "GACGATTTCAGTAACGAGACGTGCTAG", "fitted relative affinity": "1.14 z-score"}
{"Sequence": "AGACCTTCACCTCTCTGTCCGTGCTAG", "fitted relative affinity": "0.0825 z-score"}
{"Sequence": "TTAGATATGAGTCTCGATTAGTGCTAG", "fitted relative affinity": "-0.223 z-score"}
{"Sequence": "CCTCTGCTCCTCTTTTTTTGGGTGCTA", "fitted relative affinity": "0.812 z-score"}
{"Sequence": "GACGATTTCGGGTATCGAGCCGTGCTA", "fitted relative affinity": "1.52 z-score"}
{"Sequence": "TTAGGTCTCCTTATCCTTTGGTGCTAG", "fitted relative affinity": "2.65 z-score"}
{"data": "Sample 3", "target": "CCND3, cyclin fold, Cln2 fusion (human)", "method": "yeast growth competition, sequencing", "medium": "yeast", "setting": "weak parent motif", "reference": "not given", "reading": "higher = stronger binding", "starting sequence": "PKN2 docking peptide (human); VSAVQKLDFSDTM"}
{"Substitution": "Q5A L7A", "normalised enrichment score": 0.0502}
{"Substitution": "S2R", "normalised enrichment score": 0.192}
{"Substitution": "V4P", "normalised enrichment score": 0.0804}
{"Substitution": "F9N", "normalised enrichment score": 0.149}
{"Substitution": "V1I", "normalised enrichment score": 0.0841}
{"Substitution": "V1K", "normalised enrichment score": 0.139}
{"data": "Other studies, line by line"}
{"Molecule": "PhoQ, residues 284 288 289 292 302 303 SNSSNI", "target": "PhoP, residues 12 14 15 18 19 GQALL (Escherichia coli, UniProt P23836)", "test": "Sort-seq, refers to: YFP reporter", "system": "E. coli", "setting": "PhoQ-PhoP variant library, added: 10 µM Mg2+", "how to read": "reference: high Mg2+ state, higher = stronger signaling", "measurement": "fold induction", "result": 3.66}
{"note": "For quick reference, copied from above (sample 1):"}
{"Substitution": "K168L", "relative binding score": "63.2%"}
{"Substitution": "W134G", "relative binding score": "106%"}
{"Substitution": "F15I", "relative binding score": "67.2%"}
